Published values pooled from the literature.
A part holds a random share of what one study measured.
Sequence of UniProt Q9NSA0 (whole entry, looked up): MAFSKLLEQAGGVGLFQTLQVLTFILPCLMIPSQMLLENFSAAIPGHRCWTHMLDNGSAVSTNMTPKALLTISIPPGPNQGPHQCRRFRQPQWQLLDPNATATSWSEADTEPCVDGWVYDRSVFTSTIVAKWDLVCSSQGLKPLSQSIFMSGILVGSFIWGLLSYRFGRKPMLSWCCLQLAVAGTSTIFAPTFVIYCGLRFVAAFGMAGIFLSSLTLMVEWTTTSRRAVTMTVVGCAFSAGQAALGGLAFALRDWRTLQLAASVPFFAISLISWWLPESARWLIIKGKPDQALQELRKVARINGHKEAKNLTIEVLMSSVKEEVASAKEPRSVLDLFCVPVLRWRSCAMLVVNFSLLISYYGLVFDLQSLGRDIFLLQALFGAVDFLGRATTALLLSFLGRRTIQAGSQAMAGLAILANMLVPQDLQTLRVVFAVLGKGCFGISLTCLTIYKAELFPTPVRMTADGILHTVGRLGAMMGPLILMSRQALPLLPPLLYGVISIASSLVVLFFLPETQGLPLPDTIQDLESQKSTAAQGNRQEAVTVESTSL
Sequence of UniProt Q8S8P5 (169-264, looked up): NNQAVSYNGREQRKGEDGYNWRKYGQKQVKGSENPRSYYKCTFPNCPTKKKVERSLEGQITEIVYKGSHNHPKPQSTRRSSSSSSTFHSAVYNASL

Sample 1
Target: Replicase polyprotein 1ab, main protease (rep, Severe acute respiratory syndrome coronavirus 2, UniProt P0DTD1)
Observed: enzyme activity
Action: inhibitor
Concentration: 20 µM
Notes: primary screen
Endpoint: inhibition
Cc1ccc(-n2sc3ccccc3c2=O)cc1: 101%
CC1=C(CC(=O)O)c2cc(F)ccc2/C1=C\c1ccc([S+](C)[O-])cc1 (centres unmarked): 39.9%
O=C(c1cccs1)c1no[n+]([O-])c1C(=O)c1cccs1: 96.1%

Sample 2
Target: Hepatocyte nuclear factor 3-alpha (Foxa1, Mus musculus, UniProt P35582, residues 1-468, full length assumed)
Method: EMSA with sequencing
Form: double-stranded DNA, one strand shown
Matrix: in vitro
Concentration: 10 and 20 nM
Notes: whole designed probe, mean of two concentrations, ends assumed
Baseline: negative control set to 0
Direction: higher = stronger binding
Endpoint: normalised bound fraction
Construct (chain): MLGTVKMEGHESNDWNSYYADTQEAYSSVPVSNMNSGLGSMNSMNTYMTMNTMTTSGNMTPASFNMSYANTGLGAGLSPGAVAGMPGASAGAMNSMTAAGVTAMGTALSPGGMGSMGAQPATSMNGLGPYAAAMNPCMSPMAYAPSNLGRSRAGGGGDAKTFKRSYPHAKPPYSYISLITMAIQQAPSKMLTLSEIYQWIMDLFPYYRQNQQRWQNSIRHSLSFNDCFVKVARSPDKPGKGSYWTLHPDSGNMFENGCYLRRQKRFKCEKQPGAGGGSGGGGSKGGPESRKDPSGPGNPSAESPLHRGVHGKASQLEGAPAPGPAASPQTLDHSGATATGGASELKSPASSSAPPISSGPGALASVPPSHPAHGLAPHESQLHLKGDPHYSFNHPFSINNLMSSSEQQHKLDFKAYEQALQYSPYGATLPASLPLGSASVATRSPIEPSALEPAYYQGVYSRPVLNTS
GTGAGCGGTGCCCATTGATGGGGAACATCTTCCCCCTCTTCCTTGCCCCACCAGCTCACCTTCCCGGGTTATTTGCACAAAGGAAAATAAATAAAGCCGGCATTCGTTAACGCAGTTCACGCGCATACTGCTGTTTGCTCTGCATGAATCATGGTCCTTACGCGAGGCGTGGCTCCGGGAGAGCAAAGCACCGTGTCAGGCGCATGATCCGGGCTCGCCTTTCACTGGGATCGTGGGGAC: 0.38 ratio
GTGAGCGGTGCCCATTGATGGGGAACGCGTGAGCCCCCATGCTTGGCCTTACCTTTCTACTTTTATAATTCTGTATGTTATTATTTTATGAACATGAAGAAACTTTAGTAAATGTACTTGTTTACATAGTTATGTGAATAGATTAGATAAACATAAAAGGAGGAGACATACAATGGGGGAAGAAGAAGAAGTCCCCTGTAAGATGTCACTGTCTGGGTTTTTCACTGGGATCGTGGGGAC: 0.488 ratio
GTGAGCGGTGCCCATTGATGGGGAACGTCTCTAAGAATCATAAGGGTGTGAAATAATTGATTTCCAGGTTTCACAAGCAATGAAGGACTTTCTGCTTAATACTGAGCTGTATTATTTTTGTTTACATTGTGCCCATCTATGATTTCATTTGGAAAAAGAAAGTTTAGCTATCAAAATATTTCAAAACTAAACTCTAAAAAACCTATCTAAGGTGTCTTATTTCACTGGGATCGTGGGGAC: 0.437 ratio
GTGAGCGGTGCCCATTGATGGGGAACTCCACAGTAGAAACGAAGGAGATGACAGATACCCCGGCACCAAAACTGACACCAGGTTTTTGTTGCTTCTTCCACTATATAATGGAGAAGTTCTGTTTACTCTATACTGTTAACATGTTGTGCAACTGGCTTAAGGAAACCCAAGAAACTGAATCACATCAAAGGTATGTCAGAGGTATGTGAACCAGAGCAATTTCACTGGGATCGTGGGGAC: 0.366 ratio
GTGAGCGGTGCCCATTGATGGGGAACAAGAATTTATACATATGCTTTTCAATATCTGCCCTATTTTTTCTTTTGTATTTAAAAAAAATAAAATTCTAAAGAGAGTAAAAATGTACAATGTAAACATGTTGGTACAAAGAAGCTGAGAAGAGGATTTATTTTATATGTTATGAAGTATGAAATTTAGATATATAAGTAAGGTCTTGGAGAGAAGTTGTACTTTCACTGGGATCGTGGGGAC: 0.331 ratio
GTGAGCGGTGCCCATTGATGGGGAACTTTTTGTCGTGGGACAGTTGTAAACCTTTTTTGGCTTTTCTTTTACCAATAATTCTCATACTGCATGTGCTAAATGTCACAATCCCCCCCTTTCTGTTTACTTTGAAAGTGTGAAAATTTTTATTCTAGTTTTTGTTTAAAATCAGAAAAAAAAAATCTCTTAAAACTATAGCAACGCTCTTCATGTCAGTAATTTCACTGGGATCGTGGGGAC: 0.289 ratio
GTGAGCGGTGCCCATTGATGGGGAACATAGAAATTAAACAGATATAAAACTAGTAAACTCAGATAAAACTAGCACATATGTGAGAGCAAATTCAGCAAAACAAACCTCTGAATTTCAAAGTAAACATGTCCTTGAAGATGTGGAAACAGGGTCAAACTCCACCAATGTTCTGTGAGTCACATATTTACTCTGAGATTCAGGGGTCAAGGGGGAAAGTTATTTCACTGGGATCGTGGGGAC: 0.253 ratio
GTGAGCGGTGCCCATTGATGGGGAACATAGCATCCTCCCATCAGCTTTGACACTTACTGTCTTAGGATCATGATTTGCTATTCTTTATAAGGATCATTTTTCTCATTATCAGTCAACATGTTTACATTGAAATAGATACACTCTTCTATTTCAGTTATAGTTAGTTGAGACATAATCTCACTTTTGAAACCTTAACTACATATGTTATAAAACCTGTATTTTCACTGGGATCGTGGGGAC: 0.23 ratio

Sample 3
Target: Replicase polyprotein 1ab, nsp13 helicase (rep, Severe acute respiratory syndrome coronavirus 2, UniProt P0DTD1)
Action: inhibitor
Concentration: 20 µM
Endpoint: inhibition
CCCCCCCCC(=O)N[C@H](CN1CCCC1)[C@H](O)c1ccc2c(c1)OCCO2: 6.41%
CC(C)CCNc1ncccc1C(=O)N1CCN(Cc2ccccc2)CC1: 6.82%
CC(C)N(CCCNC(=O)Nc1ccc(C(C)(C)C)cc1)C[C@H]1O[C@@H](n2ccc3c(N)ncnc32)[C@H](O)[C@@H]1O: 6.45%
C[C@H](N[C@@H](CCc1ccccc1)C(=O)O)C(=O)N1CCC[C@H]1C(=O)O: -2.29%
O=C(Nc1cc(Oc2cc(F)c(NC(=O)C3(C(=O)Nc4ccc(F)cc4)CC3)cc2F)ccn1)C1CC1: 4.68%
O=C1OC2(c3ccc(O)cc3Oc3cc(O)ccc32)c2ccccc21: -5.56%
Cc1ccc(S(=O)(=O)c2ccc([N+](=O)[O-])o2)cc1: 68.2%
CCC(=O)O[C@]1(C(=O)CCl)[C@@H](C)C[C@H]2[C@@H]3CCC4=CC(=O)C=C[C@]4(C)[C@@]3(F)[C@@H](O)C[C@@]21C: 4.53%
COc1cccc(-c2cc(=O)c3ccccc3o2)c1N: -2.66%
C[N@+]12CCCC[C@@H]1CCC(=C(c1cccs1)c1cccs1)C2 (racemic): 2.68%
C=C(NC(=O)C(=C)NC(=O)c1csc(C2=N[C@@H]3c4csc(n4)[C@H]4NC(=O)c5csc(n5)[C@H]([C@](C)(O)[C@@H](C)O)NC(=O)[C@H]5CSC(=N5)/C(=C/C)NC(=O)[C@H]([C@@H](C)O)NC(=O)c5csc(n5)[C@]3(CC2)NC(=O)[C@H](C)NC(=O)C(=C)NC(=O)[C@H](C)NC(=O)[C@H]([C@@H](C)CC)N[C@@H]2C=Cc3c([C@H](C)O)cc(nc3[C@H]2O)C(=O)O[C@@H]4C)n1)C(N)=O: 0.16%
Cc1cccc(C)c1NC(=O)C[N+](C)(C)C: 2.21%
O=C(O)C1CSCN1 (centres unmarked): 9.17%
C[C@@H]1O[C@@H](OC[C@H]2O[C@@H](Oc3c(-c4ccc(OCCO)c(OCCO)c4)oc4cc(OCCO)cc(O)c4c3=O)[C@H](O)[C@@H](O)[C@@H]2O)[C@H](O)[C@H](O)[C@H]1O: 7.83%
C=CCN1CC[C@]23c4c5ccc(O)c4O[C@H]2[C@@H](OCCOCCOCCOCCOCCOCCOCCOC)CC[C@@]3(O)[C@H]1C5: 2.74%
Cc1cccc(Cc2c[nH]cn2)c1C: 5.3%
CC(C)[C@@H](C)/C=C/[C@@H](C)[C@H]1CC[C@H]2/C(=C/C=C3\C[C@@H](O)CC[C@@H]3C)CCC[C@]12C: -2.77%
Cc1nc2c(c(=O)[nH]1)CSCC2: 6.74%
O=C(O)c1ccccc1NC(=O)N1CCC(c2ccccc2C(F)(F)F)CC1: -3.96%
C=C1C(=O)O[C@@H]2/C=C(\C)CC/C=C(\C)CC[C@@H]12: 9.54%
c1ccc(C2CN3CCSC3=N2)cc1 (centres unmarked): -0.06%
Cc1ccc2c(=O)c3cccc(CC(=O)O)c3oc2c1C: 28.2%
C[C@@H]1O[C@@H](O[C@H]2[C@H](Oc3cc(O)c(C(=O)CCc4ccc(O)cc4)c(O)c3)O[C@H](CO)[C@@H](O)[C@@H]2O)[C@H](O)[C@H](O)[C@H]1O: 3.26%
Cc1cc([N+](=O)[O-])ccc1NS(=O)(=O)c1cc(Cl)ccc1Cl: 7.66%
CN(C)C/C=C/C(=O)Nc1ccc(C(=O)Nc2cccc(Nc3ncc(Cl)c(-c4c[nH]c5ccccc45)n3)c2)cc1: 13.7%

Sample 4
Target: TAR DNA-binding protein 43, full length, His tag (TARDBP, Homo sapiens, UniProt Q13148, residues 1-414)
Method: RNA Bind-n-Seq
Form: RNA
Matrix: in vitro
Concentration: 20 nM
Notes: 6-mer, flanks averaged, single round
Together with: 150 mM KCl
Baseline: input library
Direction: higher = stronger binding
Endpoint: 6-mer enrichment (R)
CUACAU: 0.564
CGUCAU: 0.612
UCUACA: 0.547
UCAUUC: 0.523
GUGAUA: 0.859
GACUGC: 0.894
UGAGUC: 0.773
CCGCCC: 0.656

Single results of other studies
WRKY11 DNA-binding domain: Probable WRKY transcription factor 11, DNA-binding domain (WRKY11, Arabidopsis thaliana, UniProt Q9SV15, residues 228-325)
Sequence of UniProt Q9SV15 (228-325, looked up): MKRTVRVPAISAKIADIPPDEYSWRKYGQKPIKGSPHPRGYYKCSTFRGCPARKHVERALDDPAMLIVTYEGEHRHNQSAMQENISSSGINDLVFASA
CC(C)n1cnc(-c2ccc(F)cc2)c1-c1ncc(C(=O)Nc2ccc(N3CCN(C)CC3)cc2)[nH]1  patients with neoplasm TEAE (phase 2a clinical trial; patients with idiopathic pulmonary fibrosis; 60 mg once daily, all grades, SOC neoplasms benign, malignant, unspecified): 0%
C[C@H]1O[C@@H](O[C@H]2[C@@H](O)C[C@H](O[C@H]3[C@@H](O)C[C@H](O[C@H]4CC[C@@]5(C)[C@H](CC[C@@H]6[C@@H]5CC[C@]5(C)[C@@H](C7=CC(=O)OC7)CC[C@]65O)C4)O[C@@H]3C)O[C@@H]2C)C[C@H](O)[C@@H]1O  nuclei count (mouse MPNST tumor cells; high-content nuclear imaging, item: cell number; 10 µM, 12 h, mean of 2 replicates; baseline: plate mean, higher = more cells): 1.74 z-score
Fc1ccccc1Cc1nc(-c2nc(C(F)(F)F)n[nH]2)cn2ccnc12  delayed maze test moves (healthy volunteers; 20 mg, single ascending dose, unit not given; baseline: placebo): -1.6
[Mn+2]  relative specific activity (uncharacterized protein (Bacteroides thetaiotaomicron, UniProt Q8A4G9); phosphatase activity, activator, phosphate release; 5 mM, EDTA-treated enzyme, together with: substrate 9 mM; baseline: activity with Mg2+): 0.27
C[C@H]1O[C@@H](O[C@H]2[C@@H](O)C[C@H](O[C@H]3[C@@H](O)C[C@H](O[C@H]4CC[C@@]5(C)[C@H](CC[C@@H]6[C@@H]5CC[C@]5(C)[C@@H](C7=CC(=O)OC7)CC[C@]65O)C4)O[C@@H]3C)O[C@@H]2C)C[C@H](O)[C@@H]1O  activity score (human iPSC-derived cardiomyocytes; MyBP-C/MYH ratio, plate-normalised SD score; concentration not given, primary screen; direction not given): 6.3
Clc1ccc(C(Cn2ccnc2)OCc2csc3c(Cl)cccc23)c(Cl)c1 (centres unmarked)  viability (HEK-293T/ACE2; concentration not given, 16 (unit not given); baseline: vehicle): 96.7%
AAAAAACAGGCCGATTCCGATCCCGGAAAA  relative absorbance (WRKY11 DNA-binding domain; DNA-protein interaction ELISA; double-stranded DNA, one strand shown, in vitro, bacterial lysate; not given, whole dsDNA probe, crude lysate protein; baseline: highest signal in screen, higher = stronger binding): 13.5 % of maximum
OC[C@H]1O[C@@H](O[C@@H]2[C@@H](O)[C@H](O[C@@H]3[C@@H](O)[C@H](O[C@H]4[C@H](O)[C@@H](CO)OC(O)[C@@H]4O)O[C@H](CO)[C@H]3O)O[C@H](CO)[C@H]2O)[C@H](O)[C@@H](O)[C@@H]1O (some centres unmarked)  ΔG (Bacteroides thetaiotaomicron; binding, ITC; pH 7.0, 25 °C, middle domain): -25.7 kcal/mol
AAAAAATTCCGCGTGTATGTGTACGTAAAA  relative absorbance (Probable WRKY transcription factor 33, N-terminal DNA-binding domain (WRKY33, Arabidopsis thaliana, UniProt Q8S8P5, residues 169-264); DNA-protein interaction ELISA; double-stranded DNA, one strand shown, in vitro, bacterial lysate; not given, whole dsDNA probe, crude lysate protein; baseline: highest signal in screen, higher = stronger binding): 25.2 % of maximum
O=C1C(CC[S+]([O-])c2ccccc2)C(=O)N(c2ccccc2)N1c1ccccc1 (centres unmarked)  IC50 (SLC22A11 (Homo sapiens, UniProt Q9NSA0); transporter uptake, inhibitor, radiometric): 8.2 µM
AAAAAACCCTACATCGCATATAAGAGAAAA  relative absorbance (WRKY11 DNA-binding domain; DNA-protein interaction ELISA; double-stranded DNA, one strand shown, in vitro, bacterial lysate; not given, whole dsDNA probe, crude lysate protein; baseline: highest signal in screen, higher = stronger binding): 19.9 % of maximum
COC(=O)Nc1c(N)nc(-c2nn(Cc3ccccc3F)c3ncc(F)cc23)nc1N  AUC ratio (healthy men; oral, dose not given, multiple dose, together with: sildenafil 50 mg; baseline: with over without sildenafil): 0.957

For quick reference, copied from above (sample 3):
Cc1cccc(C)c1NC(=O)C[N+](C)(C)C: 2.21%
Cc1nc2c(c(=O)[nH]1)CSCC2: 6.74%
Cc1ccc(S(=O)(=O)c2ccc([N+](=O)[O-])o2)cc1: 68.2%
C[C@@H]1O[C@@H](OC[C@H]2O[C@@H](Oc3c(-c4ccc(OCCO)c(OCCO)c4)oc4cc(OCCO)cc(O)c4c3=O)[C@H](O)[C@@H](O)[C@@H]2O)[C@H](O)[C@H](O)[C@H]1O: 7.83%
C[C@@H]1O[C@@H](O[C@H]2[C@H](Oc3cc(O)c(C(=O)CCc4ccc(O)cc4)c(O)c3)O[C@H](CO)[C@@H](O)[C@@H]2O)[C@H](O)[C@H](O)[C@H]1O: 3.26%
O=C1OC2(c3ccc(O)cc3Oc3cc(O)ccc32)c2ccccc21: -5.56%
